Assay results gathered from unrelated publications.
PPARG ligand-binding domain: Peroxisome proliferator-activated receptor gamma, ligand-binding domain (PPARG, Homo sapiens, UniProt P37231)
Sequence of UniProt P37231 (whole entry, looked up): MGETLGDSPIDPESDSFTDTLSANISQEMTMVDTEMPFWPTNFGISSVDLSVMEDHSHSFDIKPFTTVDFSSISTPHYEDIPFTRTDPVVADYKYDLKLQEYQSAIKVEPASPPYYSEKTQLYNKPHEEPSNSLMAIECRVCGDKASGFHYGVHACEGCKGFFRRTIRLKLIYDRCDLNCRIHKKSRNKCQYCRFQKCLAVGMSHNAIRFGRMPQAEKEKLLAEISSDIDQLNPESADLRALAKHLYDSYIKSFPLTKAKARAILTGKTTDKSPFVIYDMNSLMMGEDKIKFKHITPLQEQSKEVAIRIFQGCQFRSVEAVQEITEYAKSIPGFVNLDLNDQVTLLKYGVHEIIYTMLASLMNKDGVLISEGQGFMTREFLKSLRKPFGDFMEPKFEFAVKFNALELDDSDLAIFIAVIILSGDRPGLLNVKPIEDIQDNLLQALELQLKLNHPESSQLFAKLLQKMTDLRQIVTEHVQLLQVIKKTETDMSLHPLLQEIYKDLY
PPARG: Peroxisome proliferator-activated receptor gamma (PPARG, Homo sapiens, UniProt P37231)
Rhomboid protease AarA: Rhomboid protease AarA (Providencia stuartii, UniProt P46116)
Sequence of UniProt P46116 (whole entry, looked up): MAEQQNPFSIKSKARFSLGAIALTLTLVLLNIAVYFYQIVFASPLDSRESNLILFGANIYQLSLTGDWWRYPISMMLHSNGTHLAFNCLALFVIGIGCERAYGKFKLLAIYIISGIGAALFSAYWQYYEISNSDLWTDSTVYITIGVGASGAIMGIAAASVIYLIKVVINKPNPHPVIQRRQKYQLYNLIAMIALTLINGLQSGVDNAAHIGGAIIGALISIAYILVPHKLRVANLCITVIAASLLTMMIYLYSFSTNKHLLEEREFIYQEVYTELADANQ
Sequence of UniProt P28064 (whole entry, looked up): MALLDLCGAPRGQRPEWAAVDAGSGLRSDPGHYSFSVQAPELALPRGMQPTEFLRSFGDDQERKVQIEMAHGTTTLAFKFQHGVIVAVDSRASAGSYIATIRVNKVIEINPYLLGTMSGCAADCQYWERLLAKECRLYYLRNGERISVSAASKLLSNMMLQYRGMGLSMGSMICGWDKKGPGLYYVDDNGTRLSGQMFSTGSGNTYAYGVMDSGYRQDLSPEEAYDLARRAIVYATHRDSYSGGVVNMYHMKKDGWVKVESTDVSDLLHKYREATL
Sequence of UniProt Q14524 (whole entry, looked up): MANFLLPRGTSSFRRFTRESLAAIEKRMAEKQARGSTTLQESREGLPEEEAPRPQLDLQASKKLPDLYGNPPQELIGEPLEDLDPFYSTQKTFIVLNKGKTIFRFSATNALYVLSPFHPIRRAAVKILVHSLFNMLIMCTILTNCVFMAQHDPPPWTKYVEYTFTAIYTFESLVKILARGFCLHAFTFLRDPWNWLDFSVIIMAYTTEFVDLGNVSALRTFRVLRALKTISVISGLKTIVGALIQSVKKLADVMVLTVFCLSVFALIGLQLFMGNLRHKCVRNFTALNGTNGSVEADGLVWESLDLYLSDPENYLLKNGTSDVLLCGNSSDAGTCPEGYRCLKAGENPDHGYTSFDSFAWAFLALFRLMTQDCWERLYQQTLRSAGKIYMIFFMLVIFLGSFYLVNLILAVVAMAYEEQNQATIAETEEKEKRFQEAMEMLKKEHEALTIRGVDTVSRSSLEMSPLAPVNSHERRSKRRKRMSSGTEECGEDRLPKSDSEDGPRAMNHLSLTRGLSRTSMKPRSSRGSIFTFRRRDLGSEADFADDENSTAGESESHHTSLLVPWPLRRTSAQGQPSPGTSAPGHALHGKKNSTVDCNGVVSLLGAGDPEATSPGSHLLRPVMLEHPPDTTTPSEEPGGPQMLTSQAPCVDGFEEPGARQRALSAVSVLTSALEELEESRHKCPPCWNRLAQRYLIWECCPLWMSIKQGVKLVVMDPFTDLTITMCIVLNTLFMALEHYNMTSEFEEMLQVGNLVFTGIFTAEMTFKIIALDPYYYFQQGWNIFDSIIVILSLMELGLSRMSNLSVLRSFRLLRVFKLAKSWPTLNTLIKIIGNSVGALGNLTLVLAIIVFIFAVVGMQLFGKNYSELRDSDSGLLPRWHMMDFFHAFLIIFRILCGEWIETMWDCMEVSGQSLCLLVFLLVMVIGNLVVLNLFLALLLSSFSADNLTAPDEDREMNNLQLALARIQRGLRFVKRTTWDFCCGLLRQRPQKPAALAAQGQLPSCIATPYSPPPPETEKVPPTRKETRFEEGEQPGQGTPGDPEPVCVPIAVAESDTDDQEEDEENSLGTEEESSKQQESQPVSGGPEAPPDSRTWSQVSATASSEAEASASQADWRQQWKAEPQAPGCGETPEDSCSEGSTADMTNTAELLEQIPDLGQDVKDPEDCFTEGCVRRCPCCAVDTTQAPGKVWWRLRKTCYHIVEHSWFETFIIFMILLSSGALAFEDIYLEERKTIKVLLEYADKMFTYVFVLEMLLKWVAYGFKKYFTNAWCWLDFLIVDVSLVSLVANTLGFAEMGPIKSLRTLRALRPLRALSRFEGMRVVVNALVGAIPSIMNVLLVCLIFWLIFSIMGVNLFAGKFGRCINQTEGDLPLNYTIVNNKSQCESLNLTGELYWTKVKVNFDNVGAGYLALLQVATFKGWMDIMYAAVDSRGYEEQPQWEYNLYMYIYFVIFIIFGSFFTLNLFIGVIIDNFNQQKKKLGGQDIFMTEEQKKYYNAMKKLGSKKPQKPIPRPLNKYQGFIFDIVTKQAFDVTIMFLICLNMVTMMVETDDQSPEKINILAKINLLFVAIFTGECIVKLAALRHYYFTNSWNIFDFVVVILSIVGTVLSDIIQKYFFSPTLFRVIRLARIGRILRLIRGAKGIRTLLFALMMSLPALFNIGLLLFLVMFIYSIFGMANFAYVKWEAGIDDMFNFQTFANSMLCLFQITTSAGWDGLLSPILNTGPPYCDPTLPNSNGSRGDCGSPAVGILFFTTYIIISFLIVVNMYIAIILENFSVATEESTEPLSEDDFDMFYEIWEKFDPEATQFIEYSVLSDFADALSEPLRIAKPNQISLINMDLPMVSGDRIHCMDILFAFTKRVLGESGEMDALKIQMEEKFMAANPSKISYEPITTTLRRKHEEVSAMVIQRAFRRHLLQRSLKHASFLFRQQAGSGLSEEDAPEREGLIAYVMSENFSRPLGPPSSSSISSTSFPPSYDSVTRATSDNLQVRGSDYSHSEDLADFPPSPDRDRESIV
Sequence of UniProt P18421 (whole entry, looked up): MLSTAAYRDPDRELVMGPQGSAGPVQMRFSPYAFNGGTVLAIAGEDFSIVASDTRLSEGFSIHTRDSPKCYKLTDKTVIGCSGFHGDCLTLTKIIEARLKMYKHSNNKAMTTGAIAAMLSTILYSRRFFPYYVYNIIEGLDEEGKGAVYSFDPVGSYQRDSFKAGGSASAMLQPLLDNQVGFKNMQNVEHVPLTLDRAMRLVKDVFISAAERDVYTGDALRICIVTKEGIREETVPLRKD
Sequence of UniProt Q9NQR1 (whole entry, looked up): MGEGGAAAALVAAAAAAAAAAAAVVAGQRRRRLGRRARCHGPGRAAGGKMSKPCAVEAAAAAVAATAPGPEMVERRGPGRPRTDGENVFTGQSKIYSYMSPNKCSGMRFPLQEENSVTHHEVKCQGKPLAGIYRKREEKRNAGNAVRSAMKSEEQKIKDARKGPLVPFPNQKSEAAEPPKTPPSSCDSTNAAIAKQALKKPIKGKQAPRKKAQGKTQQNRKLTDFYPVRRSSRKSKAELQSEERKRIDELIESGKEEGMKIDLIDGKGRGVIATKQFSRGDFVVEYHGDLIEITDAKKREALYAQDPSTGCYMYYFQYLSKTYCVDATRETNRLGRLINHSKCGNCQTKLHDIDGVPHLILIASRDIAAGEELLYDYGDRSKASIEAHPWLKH
Sequence of UniProt O96028 (whole entry, looked up): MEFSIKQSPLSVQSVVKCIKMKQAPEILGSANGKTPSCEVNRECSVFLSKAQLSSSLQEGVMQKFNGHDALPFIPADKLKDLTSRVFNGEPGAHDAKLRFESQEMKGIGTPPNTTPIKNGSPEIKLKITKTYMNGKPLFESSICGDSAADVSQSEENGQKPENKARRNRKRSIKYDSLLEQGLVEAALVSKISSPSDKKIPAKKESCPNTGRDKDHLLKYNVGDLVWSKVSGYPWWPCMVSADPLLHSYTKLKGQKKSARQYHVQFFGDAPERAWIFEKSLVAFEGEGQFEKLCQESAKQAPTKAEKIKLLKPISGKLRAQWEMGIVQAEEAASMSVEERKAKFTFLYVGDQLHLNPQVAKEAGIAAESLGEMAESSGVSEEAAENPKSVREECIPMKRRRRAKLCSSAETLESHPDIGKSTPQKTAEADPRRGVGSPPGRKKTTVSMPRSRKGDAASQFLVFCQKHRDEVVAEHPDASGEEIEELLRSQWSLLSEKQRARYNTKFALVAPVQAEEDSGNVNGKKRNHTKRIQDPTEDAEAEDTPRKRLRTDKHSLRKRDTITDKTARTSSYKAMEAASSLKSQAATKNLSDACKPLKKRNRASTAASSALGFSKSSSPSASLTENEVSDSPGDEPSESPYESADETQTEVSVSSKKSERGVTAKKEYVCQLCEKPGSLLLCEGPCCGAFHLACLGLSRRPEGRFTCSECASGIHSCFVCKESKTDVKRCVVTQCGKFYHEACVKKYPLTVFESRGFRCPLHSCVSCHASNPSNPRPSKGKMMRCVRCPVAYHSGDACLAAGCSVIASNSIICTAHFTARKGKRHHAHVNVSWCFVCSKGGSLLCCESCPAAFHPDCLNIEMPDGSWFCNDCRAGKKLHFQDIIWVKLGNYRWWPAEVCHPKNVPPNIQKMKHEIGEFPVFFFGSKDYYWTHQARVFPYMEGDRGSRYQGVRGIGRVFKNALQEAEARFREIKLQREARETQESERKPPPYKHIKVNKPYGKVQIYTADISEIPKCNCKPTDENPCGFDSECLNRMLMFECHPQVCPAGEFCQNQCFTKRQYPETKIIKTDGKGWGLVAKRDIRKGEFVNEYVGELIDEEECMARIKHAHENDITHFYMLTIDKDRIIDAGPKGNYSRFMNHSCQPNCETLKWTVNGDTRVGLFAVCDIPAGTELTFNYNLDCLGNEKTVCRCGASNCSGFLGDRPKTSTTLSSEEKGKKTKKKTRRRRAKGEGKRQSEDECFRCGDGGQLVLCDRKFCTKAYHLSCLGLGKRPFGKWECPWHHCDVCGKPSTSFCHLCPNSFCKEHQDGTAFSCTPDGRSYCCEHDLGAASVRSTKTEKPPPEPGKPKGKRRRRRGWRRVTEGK

`Cc1c(Cc2cccc(OC(C)C(=O)O)c2)c2ccc(C(=O)N[C@@H](C)c3cccc(C(F)(F)F)c3)cc2n1C` (stereo partly shown) has an IC50 of 1940 nM (PPARG ligand-binding domain; reporter gene, luciferase reporter; HEK293T, Gal4-PPARγ LBD).
`CC(C)OCCOCc1ccc(OCC(O)CN(N=O)C(C)C)cc1` (stereo not shown) — result for “revertant fold increase”: 1 fold (Salmonella typhimurium; Ames test; TA100; 1580 µg/plate, without metabolic activation; baseline: solvent control).
With `Cc1c(Cc2cncc(O[C@H](C)C(=O)O)c2)c2ccc(C(=O)N[C@@H](C)c3ccc(C(C)(C)C)cc3)cc2n1CC1CCC1` the IC50 was 723 nM (PPARG; ligand displacement, TR-FRET).
For `O=Cc1ccc(C(=O)N2CCc3cc(NC(=O)c4ccc(CN(C(=O)c5ccc6c(c5)OCC(=O)N6)C5CC5)cc4)ccc3C2)cc1`, the IC50 was 159 nM (Histone-lysine N-methyltransferase NSD2 (NSD2, Homo sapiens, UniProt O96028); ligand displacement, TR-FRET).
For `Nc1ncc(-c2cc(-c3cnn(CC(F)(F)F)c3)ncc2F)nc1C(=O)NC1CNCC(F)C1` (stereo not shown), the remaining binding was 78% (STK39; KINOMEscan; 1 µM; baseline: DMSO control).
Under “log2 fold change”, `COC1CN([C@H]2CC[C@H]([C@@]3(C)Oc4c(Cl)cc(C(=O)NCc5c(SC)cc(C)[nH]c5=O)c(C)c4O3)CC2)C1` is recorded as 1.57 (RNA-seq, refers to: AJUBA mouse homolog; mouse, HT-1376 xenograft, whole blood; dose not given; baseline: vehicle).
With `CC(C)(C)OC(=O)NCCOc1ccccc1NC(=O)C(C(F)(F)F)C(F)(F)F` the IC50 was 5700 nM (Rhomboid protease AarA; enzyme activity, inhibitor, fluorescence).
`C=CC(=O)Nc1cccc(Cn2ncc3cnc(Nc4cnn(CCOC)c4)nc32)c1` — result for “percent of control”: 100% (WNK1 human; binding, KINOMEscan; 100 nM; lower = stronger binding).
The IC50 of `Cc1c(Cc2cc(Cl)cc(OC(C)C(=O)O)c2)c2ccc(C(=O)NC(C)c3ccc(C(C)(C)C)cc3)cc2n1C` (stereo not shown) is reported as 320 nM (PPARG ligand-binding domain; reporter gene, luciferase reporter; HEK293T, Gal4-PPARγ LBD).
`O=C1CC(c2ccccc2)N1S(=O)(=O)c1cccc(-c2ccccc2)c1` (stereo not shown) gave an IC50 of 8400 nM (Rhomboid protease AarA; enzyme activity, inhibitor, fluorogenic peptide; 108 min pre-incubation).
The IC50 of `CNS(=O)(=O)Nc1nccc(Cc2c(C)c3ccc(Oc4ncccc4F)cc3oc2=O)c1F` is reported as 92.4 nM (SUM185PE; cell viability; 7 days).
With `Cc1ccc(N=C2CC(=O)c3sc(C)nc3C2=O)cc1` the IC50 was 600 nM (N-lysine methyltransferase KMT5A (KMT5A, Homo sapiens, UniProt Q9NQR1); enzyme activity, inhibitor, radiometric).
With `CC(C)Oc1cc(NC(=O)[C@H](Cc2ccccc2)NC(=O)c2ccc(N)cc2OCc2ccccc2)ccc1C(=O)NCC(=O)O` the IC50 was > 100000 nM (Induced myeloid leukemia cell differentiation protein Mcl-1 (MCL1, Homo sapiens, UniProt Q07820); fluorescence anisotropy competition; pH 7.50, together with: FITC-NOXA B tracer).
The IC50 of `Cc1ccc(CNC(=O)[C@@H](NC(=O)[C@H](CCc2ccccc2)NC(=O)[C@H](CCc2ccccc2)N(C)C)C(C)C)cc1` is reported as 2150 nM (Psmb1/Psmb8 (Rattus norvegicus, UniProt P18421+P28064); enzyme activity, inhibitor; together with: Ac-ANW-aminocoumarin, PA28α 12 nM).
The IC50 of `O=C(Nc1ccc2[nH]ncc2c1)c1c[nH]cc1-c1ccccc1` is reported as 22500 nM (Sodium channel protein type 5 subunit alpha (SCN5A, Homo sapiens, UniProt Q14524); sodium current, inhibitor; HEK293 stably expressing Nav1.5).
`CN1CCCNC(=O)c2cccc(c2)C(=O)NCCCN(C)CCCNc2cccc3c2C(=O)c2cccc(c2C3=O)NCCC1` — result for “log2 fold change”: 1.84 (SAS; RNA-Seq, refers to: FAM86C1 mRNA; 1 µM, 6 h; baseline: untreated cells).
The IC50 of `Cc1nc2c(F)cc(-c3nc(Nc4ccc(CC(=O)NCCCCC(=O)NO)cc4)ncc3F)cc2n1C(C)C` is reported as 44 nM (Histone deacetylase 1 (HDAC1, Homo sapiens, UniProt Q13547); enzyme activity, inhibitor).
The clearance of `C=C(NC(=O)c1csc(-c2nc3c(cc2O)-c2nc(cs2)C(=O)NC(C(C)O)C(=O)NC(=C(C)OC)c2nc(cs2)C(=O)NC2c4nc(cs4)C(=O)NC(COC(=O)c4c5c6c(cccc6n4O)COC(=O)C(OC4CC(C)(O)C(N(C)C)C(C)O4)C2OC5)c2nc-3cs2)n1)C(N)=O` (stereo not shown) is reported as 1.94 mL/min/kg (cynomolgus monkey, male, plasma; intravenous infusion, 1 mg/kg single dose).
With `Cc1c(Cc2cccc(OC(C)C(=O)O)c2)c2ccc(C(=O)NC(C)c3ccc(C4CC4)cc3)cc2n1C` (mixture of isomers) the IC50 was 2080 nM (PPARG ligand-binding domain; reporter gene, luciferase reporter; HEK293T, Gal4-PPARγ LBD).
`COc1ccc(Cn2nccc2NC(=O)C(C(F)(F)F)C(F)(F)F)cc1` has an IC50 of 25000 nM (Rhomboid protease AarA; enzyme activity, inhibitor, fluorescence).
`Cc1ncsc1-c1ccc(C(C)NC(=O)C2CC(O)CN2C(=O)C(NC(=O)CCCCCCCCCCN2CCCC(Nc3ncc(Cl)c(Nc4ccccc4S(=O)(=O)C(C)C)n3)C2)C(C)(C)C)cc1` (stereo not shown) — result for “log2 fold change”: -2.87 (22Rv1; RNA-seq, refers to: ZIC5 mRNA; concentration not given; baseline: DMSO).
`Cc1nn(-c2cccc(N)c2)c(=O)c2cnc(Nc3ccc(N4CCNCC4)cc3)nc12` gave an IC50 of 507 nM (MAP kinase-activated protein kinase 3 (MAPKAPK3, Homo sapiens, UniProt Q16644); enzyme activity, inhibitor).
With `Cc1cc(NC2CCN(C)CC2)ccc1-c1cc2c(N3CCC[C@H](C(=O)NCc4ccc(OC(F)(F)F)cc4)C3)ncnc2[nH]1` the IC50 was > 8000 nM (Glycogen synthase kinase-3 alpha (GSK3A, Homo sapiens, UniProt P49840); enzyme activity, inhibitor, mobility shift).
The IC50 of `Cc1c(Cc2ccc(OC(C)(C)C(=O)O)cc2)c2ccc(C(=O)N[C@@H](C)c3ccc(C4CC4)cc3)cc2n1C` is reported as 7 nM (PPARG; ligand displacement, TR-FRET).
The IC50 of `Cc1nnc(-c2ccc(CC(=O)NCCOCCOCC(=O)NC(CCN3C4CCC3CC(n3c(C)nnc3C(C)C)C4)c3ccccc3)cc2)nn1` (stereo not shown) is reported as 23.6 nM (C-C chemokine receptor type 5 (CCR5, Homo sapiens, UniProt P51681, Y184K); calcium mobilization, antagonist; HEK293T cells expressing CCR5; together with: PSC-RANTES).

Some of these lines once more:
`CN1CCCNC(=O)c2cccc(c2)C(=O)NCCCN(C)CCCNc2cccc3c2C(=O)c2cccc(c2C3=O)NCCC1` — result for “log2 fold change”: 1.84 (SAS; RNA-Seq, refers to: FAM86C1 mRNA; 1 µM, 6 h; baseline: untreated cells).
With `Cc1cc(NC2CCN(C)CC2)ccc1-c1cc2c(N3CCC[C@H](C(=O)NCc4ccc(OC(F)(F)F)cc4)C3)ncnc2[nH]1` the IC50 was > 8000 nM (Glycogen synthase kinase-3 alpha (GSK3A, Homo sapiens, UniProt P49840); enzyme activity, inhibitor, mobility shift).
